# Results pooled from the literature.
# Each numbered part is a random draw from the data of one study; scales do not carry over between parts.
# Sequence of UniProt Q92985 (whole entry, unmodified, looked up): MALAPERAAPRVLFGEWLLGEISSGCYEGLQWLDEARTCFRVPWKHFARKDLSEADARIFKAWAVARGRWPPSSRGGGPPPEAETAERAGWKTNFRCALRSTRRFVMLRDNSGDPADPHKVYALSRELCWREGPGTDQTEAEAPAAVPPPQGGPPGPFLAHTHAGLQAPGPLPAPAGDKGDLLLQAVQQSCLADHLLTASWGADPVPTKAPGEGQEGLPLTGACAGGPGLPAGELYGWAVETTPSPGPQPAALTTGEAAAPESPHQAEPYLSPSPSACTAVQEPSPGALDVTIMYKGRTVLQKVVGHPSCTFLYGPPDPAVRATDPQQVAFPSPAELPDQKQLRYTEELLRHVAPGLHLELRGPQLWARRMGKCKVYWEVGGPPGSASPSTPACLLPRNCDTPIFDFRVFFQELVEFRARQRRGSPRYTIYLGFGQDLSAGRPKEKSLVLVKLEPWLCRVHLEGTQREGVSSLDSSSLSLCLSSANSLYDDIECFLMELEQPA

# Set 1
# Target: Histone acetyltransferase KAT6A, winged helix 1, GST fusion (KAT6A, Homo sapiens, UniProt Q92794, residues 1-85)
# Technique: protein binding microarray
# Form: double-stranded DNA, one strand shown
# Medium: in vitro
# Concentration: not given
# Notes: 8-mer, flanks averaged, mean of 2 arrays, mostly near background
# Reference: not given
# Direction: higher = stronger binding
# Target sequence (chain): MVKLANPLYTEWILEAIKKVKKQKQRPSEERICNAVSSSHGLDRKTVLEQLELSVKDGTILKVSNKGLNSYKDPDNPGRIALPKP
Sequence,E-score
TAATGGCA,-0.117
AGGCCGTC,0.338
CCTGGCAG,-0.157
CAATCTAC,-0.039
ATGAGCTG,-0.0602

# Set 2
# Target: RNA binding protein fox-1 homolog 2, RRM domain, GST-SBP tag (RBFOX2, Homo sapiens, UniProt O43251-10, residues 100-194)
# Technique: RNA Bind-n-Seq
# Form: RNA
# Medium: in vitro
# Concentration: 365 nM
# Notes: natural RNA segment, single round, ends assumed
# Reference: no-protein control
# Direction: higher = stronger binding
Sequence,RBNS enrichment (R)
GGGAGUUCUACAGUCCGACGAUCCCUCUCCCUCUUUCUAGCCUGGGGCUUGAAUUUGCAUGUCUAAUUCAUUUACUCACCAUAUUUGAAUUGGCCUGAACAGAUGUAAAUCGGGAAGGAUGGGAAAAACUGCAUGGAAUUCUCGGGUGCCAA,1.72
GGGAGUUCUACAGUCCGACGAUCCAGGCCUGGAGCGUUUGCUGUGCCAGGAGGCGGCAGCUCUUCUGGGCAGAGCCUGUCCCCGCCUUCCCUCACUCUUCCUCAUCCUGCUUCUCUUUUCCUCGCAGAUGAUAUGGAAUUCUCGGGUGCCAA,0.458
GGGAGUUCUACAGUCCGACGAUCGUGCAGCUGUGUCUUAUGUAUUUAUAUGUAUGUCGCUCUUCAAAAGCAACCUAGUUUAUGGGGCAGCUGGACUUUGCAUGUUAGAGUGAGCCCCAAGCCCCUUGGCCCACUGGAAUUCUCGGGUGCCAA,35.1

# Other studies, line by line
# IRF3 S386D/S396D/S398D/S402D/T404D/S405D full length, phosphomimetic: Interferon regulatory factor 3, full length, phosphomimetic (IRF3, Homo sapiens, UniProt Q14653, residues 1-427, S386D/S396D/S398D/S402D/T404D/S405D)
# Sequence of UniProt Q14653 (whole entry, unmodified, looked up): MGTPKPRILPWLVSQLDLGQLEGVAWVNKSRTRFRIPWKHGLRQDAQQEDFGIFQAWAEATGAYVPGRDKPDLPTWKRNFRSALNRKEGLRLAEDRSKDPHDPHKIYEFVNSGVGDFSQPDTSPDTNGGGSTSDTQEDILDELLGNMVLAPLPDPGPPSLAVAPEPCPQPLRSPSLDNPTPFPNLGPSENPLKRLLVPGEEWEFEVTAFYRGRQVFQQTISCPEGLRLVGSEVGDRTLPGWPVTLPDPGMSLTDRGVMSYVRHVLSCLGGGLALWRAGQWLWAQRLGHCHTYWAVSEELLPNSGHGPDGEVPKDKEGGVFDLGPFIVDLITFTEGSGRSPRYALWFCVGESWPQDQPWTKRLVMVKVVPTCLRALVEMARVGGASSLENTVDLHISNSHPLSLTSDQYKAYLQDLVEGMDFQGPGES
Substance,target,test,test system,conditions,how to read,endpoint,value
GCCTAGCACGACGCTATCCTTTTCCTGACGTGCTAGGTCTTGATTCGCTTGACGCTGCTG,"Interferon regulatory factor 7, full length, phosphomimetic (IRF7, Homo sapiens, UniProt Q92985, residues 1-503, S471D/S472D/S475D/S476D/S477D/S483D/S484D/S487D)",protein-binding microarray,"double-stranded DNA, one strand shown, in vitro","2200 nM top, 60-bp whole probe, together with: salmon DNA 0.4 mg/ml","reference: random background probes, higher = stronger binding",fitted relative affinity,1.93 z-score
"PhoQ, residues 284 288 289 292 302 303 TNSAEL","PhoP, residues 12 14 15 18 19 TPWLV (Escherichia coli, UniProt P23836)","Sort-seq, refers to: YFP reporter",E. coli,"PhoQ-PhoP variant library, together with: 10 µM Mg2+","reference: high Mg2+ state, higher = stronger signaling",fold induction,0.875
GCCTAGCACGACTATTTCAGTCTCGAGACGTGCTAGGTCTTGATTCGCTTGACGCTGCTG,"Interferon regulatory factor 5, full length, phosphomimetic (IRF5, Homo sapiens, UniProt Q13568-2, residues 1-514, K96S/S451D/S453D/S456D/S462D)",protein-binding microarray,"double-stranded DNA, one strand shown, in vitro","250 nM, 60-bp whole probe, together with: salmon DNA 0.4 mg/ml","reference: random background probes, higher = stronger binding",log fluorescence,1.84 z-score
GCCTAGCACGACGATATCTGGACTGGAGACGTGCTAGTCTTGATTCGCTTGACGCTGCTG,"IRF3 S386D/S396D/S398D/S402D/T404D/S405D full length, phosphomimetic",protein-binding microarray,"double-stranded DNA, one strand shown, in vitro","2540 nM top, 60-bp whole probe, together with: salmon DNA 0.4 mg/ml","reference: random background probes, higher = stronger binding",fitted relative affinity,-0.124 z-score
GCCTAGCACCTCACCGCCAACCCAGTTCCGTGCTAGGTCTTGATTCGCTTGACGCTGCTG,"IRF3 S386D/S396D/S398D/S402D/T404D/S405D full length, phosphomimetic",protein-binding microarray,"double-stranded DNA, one strand shown, in vitro","2540 nM top, 60-bp whole probe, together with: salmon DNA 0.4 mg/ml","reference: random background probes, higher = stronger binding",fitted relative affinity,0.0688 z-score

# Excerpt of the above (set 1):
Sequence,E-score
CAATCTAC,-0.039
ATGAGCTG,-0.0602
